Measurements pooled from the literature.
Several values in a cell are separate wells, animals, samples, runs or records. ± gives the spread as reported.
KDM1A: Lysine-specific histone demethylase 1A (KDM1A, Homo sapiens, UniProt O60341)
Rhomboid protease AarA: Rhomboid protease AarA (Providencia stuartii, UniProt P46116)
Chain of UniProt P46116 (whole entry, looked up): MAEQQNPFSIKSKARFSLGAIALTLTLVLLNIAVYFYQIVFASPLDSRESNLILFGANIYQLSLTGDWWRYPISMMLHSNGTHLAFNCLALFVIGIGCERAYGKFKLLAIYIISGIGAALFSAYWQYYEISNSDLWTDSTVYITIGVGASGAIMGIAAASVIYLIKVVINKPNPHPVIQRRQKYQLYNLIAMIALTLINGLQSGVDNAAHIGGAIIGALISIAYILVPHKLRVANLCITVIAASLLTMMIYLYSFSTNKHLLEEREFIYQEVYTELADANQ
CASP1: Caspase-1 (CASP1, Homo sapiens, UniProt P29466)
Chain of UniProt P46089 (whole entry, looked up): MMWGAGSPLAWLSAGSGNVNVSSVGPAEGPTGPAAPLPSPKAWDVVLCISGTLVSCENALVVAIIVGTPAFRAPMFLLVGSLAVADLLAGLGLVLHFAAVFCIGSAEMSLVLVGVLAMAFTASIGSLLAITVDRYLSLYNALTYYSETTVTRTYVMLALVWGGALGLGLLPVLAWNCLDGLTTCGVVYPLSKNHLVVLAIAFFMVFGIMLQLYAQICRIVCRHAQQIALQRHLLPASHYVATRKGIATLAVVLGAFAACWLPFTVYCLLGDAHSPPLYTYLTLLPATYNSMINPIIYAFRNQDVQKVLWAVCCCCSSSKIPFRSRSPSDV
Chain of UniProt P29466 (whole entry, looked up): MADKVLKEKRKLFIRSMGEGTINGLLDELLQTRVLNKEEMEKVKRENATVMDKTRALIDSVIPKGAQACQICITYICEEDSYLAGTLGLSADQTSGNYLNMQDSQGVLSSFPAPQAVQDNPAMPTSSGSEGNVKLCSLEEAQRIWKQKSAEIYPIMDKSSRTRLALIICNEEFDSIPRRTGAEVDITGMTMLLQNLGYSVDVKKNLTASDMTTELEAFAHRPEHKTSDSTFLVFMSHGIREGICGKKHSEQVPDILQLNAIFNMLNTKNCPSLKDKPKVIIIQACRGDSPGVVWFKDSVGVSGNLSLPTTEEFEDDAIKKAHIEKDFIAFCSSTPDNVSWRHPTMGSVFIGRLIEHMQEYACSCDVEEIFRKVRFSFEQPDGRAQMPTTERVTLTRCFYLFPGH
Chain of UniProt Q9UM07 (whole entry, looked up): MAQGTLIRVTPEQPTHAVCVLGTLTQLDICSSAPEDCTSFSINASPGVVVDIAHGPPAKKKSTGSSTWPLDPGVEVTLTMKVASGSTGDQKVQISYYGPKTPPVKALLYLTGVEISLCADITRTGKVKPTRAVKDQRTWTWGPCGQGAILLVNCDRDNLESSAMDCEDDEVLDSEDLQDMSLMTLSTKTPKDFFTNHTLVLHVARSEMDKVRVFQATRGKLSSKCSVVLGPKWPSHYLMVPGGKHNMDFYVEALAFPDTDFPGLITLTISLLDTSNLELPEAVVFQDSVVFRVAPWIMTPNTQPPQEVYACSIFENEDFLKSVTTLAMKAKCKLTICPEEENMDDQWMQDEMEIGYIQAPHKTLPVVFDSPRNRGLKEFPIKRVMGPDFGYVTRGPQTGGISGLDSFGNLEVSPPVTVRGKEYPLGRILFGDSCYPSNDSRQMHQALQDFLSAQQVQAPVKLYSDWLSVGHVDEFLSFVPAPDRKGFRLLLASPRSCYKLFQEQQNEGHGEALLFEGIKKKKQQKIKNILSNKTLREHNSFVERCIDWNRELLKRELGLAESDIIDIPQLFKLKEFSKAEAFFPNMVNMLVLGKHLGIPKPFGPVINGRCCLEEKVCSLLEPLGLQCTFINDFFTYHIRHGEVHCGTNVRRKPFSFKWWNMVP
Chain of UniProt P28482 (whole entry, looked up): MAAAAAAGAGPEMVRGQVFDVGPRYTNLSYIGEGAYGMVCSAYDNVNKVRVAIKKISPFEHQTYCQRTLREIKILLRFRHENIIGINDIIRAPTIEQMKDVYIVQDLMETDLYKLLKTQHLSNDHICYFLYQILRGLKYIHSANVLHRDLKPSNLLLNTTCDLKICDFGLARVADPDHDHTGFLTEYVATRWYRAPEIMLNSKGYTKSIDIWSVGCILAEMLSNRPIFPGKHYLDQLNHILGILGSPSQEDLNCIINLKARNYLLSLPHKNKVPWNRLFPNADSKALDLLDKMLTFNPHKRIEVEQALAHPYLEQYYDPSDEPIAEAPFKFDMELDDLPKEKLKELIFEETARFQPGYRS
Chain of UniProt Q92633 (whole entry, unmodified, looked up): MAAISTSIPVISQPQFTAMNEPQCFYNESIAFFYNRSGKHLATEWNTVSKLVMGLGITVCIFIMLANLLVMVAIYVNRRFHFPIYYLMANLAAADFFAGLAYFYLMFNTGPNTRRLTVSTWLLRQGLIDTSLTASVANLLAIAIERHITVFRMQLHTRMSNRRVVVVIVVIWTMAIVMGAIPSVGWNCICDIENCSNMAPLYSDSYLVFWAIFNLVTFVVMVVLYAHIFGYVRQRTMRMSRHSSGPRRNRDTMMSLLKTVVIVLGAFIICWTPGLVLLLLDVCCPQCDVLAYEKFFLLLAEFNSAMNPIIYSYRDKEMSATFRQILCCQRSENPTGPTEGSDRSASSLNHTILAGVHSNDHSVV
Chain of UniProt Q5XJY4 (whole entry, looked up): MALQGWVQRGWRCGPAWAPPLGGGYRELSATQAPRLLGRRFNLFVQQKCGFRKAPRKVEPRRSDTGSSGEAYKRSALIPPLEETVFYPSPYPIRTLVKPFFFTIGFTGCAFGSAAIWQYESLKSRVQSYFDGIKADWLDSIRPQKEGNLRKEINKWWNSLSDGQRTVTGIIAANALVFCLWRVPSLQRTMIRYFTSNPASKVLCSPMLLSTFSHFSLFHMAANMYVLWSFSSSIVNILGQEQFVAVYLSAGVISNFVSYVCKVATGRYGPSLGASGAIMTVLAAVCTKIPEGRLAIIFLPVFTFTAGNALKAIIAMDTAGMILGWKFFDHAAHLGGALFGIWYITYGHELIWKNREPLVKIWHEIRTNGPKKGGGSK
Chain of UniProt Q13148 (whole entry, looked up): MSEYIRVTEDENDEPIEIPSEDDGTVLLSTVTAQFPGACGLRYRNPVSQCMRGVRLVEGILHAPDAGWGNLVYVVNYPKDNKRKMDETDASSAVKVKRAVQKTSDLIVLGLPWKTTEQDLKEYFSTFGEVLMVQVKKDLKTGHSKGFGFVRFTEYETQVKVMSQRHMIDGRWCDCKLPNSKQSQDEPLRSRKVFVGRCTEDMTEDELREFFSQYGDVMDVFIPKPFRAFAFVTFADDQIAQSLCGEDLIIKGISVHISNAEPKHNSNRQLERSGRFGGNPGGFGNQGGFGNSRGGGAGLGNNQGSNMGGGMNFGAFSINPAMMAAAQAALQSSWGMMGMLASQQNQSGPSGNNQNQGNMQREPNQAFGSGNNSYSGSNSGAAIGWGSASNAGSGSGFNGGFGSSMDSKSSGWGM
Chain of UniProt Q9NQR1 (whole entry, looked up): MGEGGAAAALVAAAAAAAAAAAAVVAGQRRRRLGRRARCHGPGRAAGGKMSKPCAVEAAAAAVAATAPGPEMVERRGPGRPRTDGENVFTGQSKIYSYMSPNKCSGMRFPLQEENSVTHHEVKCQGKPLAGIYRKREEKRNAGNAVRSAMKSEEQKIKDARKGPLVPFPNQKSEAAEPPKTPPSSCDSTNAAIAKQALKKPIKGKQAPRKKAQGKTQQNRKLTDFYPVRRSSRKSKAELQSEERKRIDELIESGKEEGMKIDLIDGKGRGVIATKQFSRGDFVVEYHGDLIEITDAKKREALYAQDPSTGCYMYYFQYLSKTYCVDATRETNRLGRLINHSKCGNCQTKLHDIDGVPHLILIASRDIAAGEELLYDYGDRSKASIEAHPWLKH
Chain of UniProt P10721 (whole entry, looked up): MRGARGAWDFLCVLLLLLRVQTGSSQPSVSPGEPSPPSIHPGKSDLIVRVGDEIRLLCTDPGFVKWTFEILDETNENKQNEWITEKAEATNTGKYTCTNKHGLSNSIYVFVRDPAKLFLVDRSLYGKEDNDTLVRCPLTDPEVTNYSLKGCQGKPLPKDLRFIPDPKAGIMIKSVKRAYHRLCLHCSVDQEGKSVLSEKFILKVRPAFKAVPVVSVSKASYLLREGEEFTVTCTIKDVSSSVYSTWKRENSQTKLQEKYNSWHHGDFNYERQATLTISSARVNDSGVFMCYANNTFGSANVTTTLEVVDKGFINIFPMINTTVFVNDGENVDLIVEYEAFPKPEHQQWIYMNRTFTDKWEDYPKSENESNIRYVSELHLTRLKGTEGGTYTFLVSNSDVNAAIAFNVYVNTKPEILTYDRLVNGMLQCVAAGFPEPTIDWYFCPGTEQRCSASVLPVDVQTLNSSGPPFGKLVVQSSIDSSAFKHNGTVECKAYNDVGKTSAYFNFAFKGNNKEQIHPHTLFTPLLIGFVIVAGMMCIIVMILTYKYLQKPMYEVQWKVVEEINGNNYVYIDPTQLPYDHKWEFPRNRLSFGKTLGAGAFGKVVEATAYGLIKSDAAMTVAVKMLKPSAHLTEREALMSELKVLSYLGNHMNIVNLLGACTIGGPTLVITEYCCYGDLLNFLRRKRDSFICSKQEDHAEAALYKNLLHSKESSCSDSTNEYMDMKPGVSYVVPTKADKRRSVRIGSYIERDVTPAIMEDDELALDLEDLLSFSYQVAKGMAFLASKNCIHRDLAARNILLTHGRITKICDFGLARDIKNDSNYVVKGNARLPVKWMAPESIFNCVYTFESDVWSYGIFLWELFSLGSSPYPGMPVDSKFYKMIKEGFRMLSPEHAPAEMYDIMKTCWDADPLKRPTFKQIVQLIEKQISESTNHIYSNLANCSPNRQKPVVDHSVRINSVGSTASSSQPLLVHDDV
Chain of UniProt Q9BY41 (whole entry, unmodified, looked up): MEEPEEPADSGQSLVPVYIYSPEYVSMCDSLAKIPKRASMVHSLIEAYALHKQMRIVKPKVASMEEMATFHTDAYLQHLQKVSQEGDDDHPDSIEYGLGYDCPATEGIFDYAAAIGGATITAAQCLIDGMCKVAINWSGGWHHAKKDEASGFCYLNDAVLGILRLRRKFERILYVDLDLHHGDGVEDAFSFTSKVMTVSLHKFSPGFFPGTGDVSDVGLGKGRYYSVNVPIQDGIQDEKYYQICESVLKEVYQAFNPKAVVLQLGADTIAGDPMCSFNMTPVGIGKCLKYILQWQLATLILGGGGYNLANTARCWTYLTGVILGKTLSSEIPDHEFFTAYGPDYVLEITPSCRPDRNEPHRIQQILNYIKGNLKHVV

Compound = C=CC(=O)Nc1cccc(Cn2ncc3cnc(Nc4cnn(CCOC)c4)nc32)c1; target or system = AKT1 human; test = binding, KINOMEscan; setting = 100 nM; how to read = lower = stronger binding; quantity = percent of control; value = 100%
Compound = CCN(CC)C(CO)c1cccc2c(C)c(C)oc12 (stereo not drawn); target or system = LPAR1 (Homo sapiens, UniProt Q92633, W210A); test = G-protein dissociation, agonist, NanoBiT; test system = HEK-293T; setting = 100 pM, W210A mutant; how to read = baseline: baseline luminescence; quantity = fold change; value = 1.1 and 1.03 and 1.02 and 1
Compound = OC1CCCCC1N1CCC(c2ccc(Br)cc2)CC1 (racemic); target or system = Vesicular acetylcholine transporter (Rattus norvegicus, UniProt Q62666); how to read = baseline: Ki sigma1 over Ki VAChT; quantity = selectivity ratio; value = 0.018
Compound = Cc1cnc(NC(=O)c2cccc([C@@H]3C[C@H]3NC3CCC3)c2)s1; target or system = KDM1A; test = demethylase activity, inhibitor, Amplex Red; setting = 0.6667 µM, together with: H3K4me2 peptide; how to read = baseline: vehicle; quantity = remaining activity; value = 35.9%
Compound = COC1CN([C@H]2CC[C@H]([C@@]3(C)Oc4c(Cl)cc(C(=O)NCc5c(SC)cc(C)[nH]c5=O)c(C)c4O3)CC2)C1; test = RNA-seq, measured: TSKU; test system = human, whole blood; setting = dose not given, 24 h; how to read = baseline: pretreatment baseline; quantity = log2 fold change; value = 4.32
Compound = Cn1c(=O)n(C2CCC(=O)NC2=O)c2ccc(C3CCN(CC(=O)Nc4cccc(CS(=O)(=O)N5CC[C@H](Nc6cccc(-c7sc(C(=O)O)c(OCC(=O)O)c7Cl)c6)CC5(C)C)c4)CC3)cc21 (stereo partly drawn); target or system = PTPN2 (Homo sapiens, UniProt P17706, E41K/R35E/R43E); test = degrader, bio-layer interferometry; setting = 500 nM; how to read = higher = more binding; quantity = BLI binding response; value = 0.622 a.u.
Compound = CC(C)Oc1cc(Cl)ccc1CNc1cc(-c2ccccc2)nc2ncnn12; target or system = GPR3 (Homo sapiens, UniProt P46089); test = cAMP reporter; test system = human cells; setting = 30 µM; how to read = higher is more cAMP; quantity = cAMP luminescence; value = 4900 a.u. and 5580 a.u. and 7030 a.u. and 3490 a.u. and 1360 a.u. and 2420 a.u. and 13600 a.u.
Compound = CSCC[C@H](NC(=O)[C@H](CCC(N)=O)NC(=O)[C@H](CCCCN)NC(=O)[C@H](CCCNC(=N)N)NC(=O)[C@H](Cc1ccc(O)cc1)NC(=O)[C@H](CCCNC(=N)N)NC(=O)[C@H](CO)NC(=O)[C@H](Cc1ccc(O)cc1)NC(=O)[C@H](CO)NC(=O)[C@H](CC(=O)O)NC(=O)[C@@H](NC(=O)[C@@H](N)Cc1ccccc1)[C@@H](C)O)C(=O)N[C@@H](C)C(=O)N[C@H](C(=O)N[C@@H](CCCCN)C(=O)N[C@@H](CCCCN)C(=O)N[C@@H](Cc1ccc(O)cc1)C(=O)N[C@@H](CC(C)C)C(=O)N[C@@H](C)C(=O)N[C@@H](C)C(=O)N[C@H](C(=O)N[C@@H](CC(C)C)C(=O)NCC(=O)N[C@@H](CCCCN)C(=O)N[C@@H](CCCNC(=N)N)C(=O)N[C@@H](Cc1ccc(O)cc1)C(=O)N[C@@H](CCCCN)C(=O)N[C@@H](CCC(N)=O)C(=O)N[C@@H](CCCNC(=N)N)C(=O)N[C@H](C(=O)N[C@@H](CCCCN)C(=O)N[C@@H](CC(N)=O)C(=O)N[C@@H](CCCCn1cc(C[C@H](NC(=O)CNC(=O)[C@H](CO)NC(=O)[C@H](CCCNC(=N)N)NC(=O)[C@H](CO)NC(=O)[C@H](CC(C)C)NC(=O)[C@H](CC(C)C)NC(=O)CNC(=O)[C@H](C)NC(=O)[C@H](CC(C)C)NC(=O)[C@H](CCCNC(=N)N)NC(=O)[C@H](Cc2c[nH]cn2)NC(=O)[C@@H](NC(=O)[C@@H](N)C(C)C)[C@@H](C)O)C(=O)N[C@H](C(=O)N[C@H](C(=O)N[C@@H](CCCCN)C(=O)N[C@@H](CC(N)=O)C(=O)N[C@@H](CC(N)=O)C(=O)N[C@@H](Cc2ccccc2)C(=O)N[C@H](C(=O)N2CCC[C@H]2C(=O)N[C@H](C(=O)N[C@@H](CC(N)=O)C(=O)N[C@H](C(=O)NCC(=O)N[C@@H](CO)C(=O)N[C@@H](CCCCN)C(=O)N[C@@H](C)C(=O)N[C@@H](Cc2ccccc2)C(N)=O)C(C)C)[C@@H](C)O)C(C)C)C(C)C)C(C)C)nn1)C(N)=O)C(C)C)C(C)C)C(C)C; target or system = VIPR2 (Homo sapiens, UniProt P41587); test = cAMP accumulation, antagonist; test system = transfected COS-7 cells; setting = together with: PACAP-38; quantity = antagonist potency; value = 2090 nM
Compound = O=C(O)C1OC(Oc2cccc(-c3oc4ccccc4c(=O)c3O)c2)C(O)C(O)C1O (stereo not drawn); target or system = UGT1A1 (Homo sapiens, UniProt P22309); test = glucuronidation, substrate; test system = Supersomes; quantity = Vmax; value = 7.43 ± 7.8 nmol/mg/min
Compound = CN(C)S(=O)(=O)c1ccc(S(=O)(=O)N2CCC(n3c(=O)[nH]c4ccccc43)CC2)cc1; target or system = mfd, C-terminal domain (Escherichia coli, UniProt P30958); test = inhibitor; setting = concentration not given; how to read = baseline: untreated; quantity = ATPase activity; value = 18.6%
Compound = CCCCCC=CC=C1C(=O)C=CC1CC=CCCCC(=O)O (stereo not drawn); target or system = ADP-ribose glycohydrolase MACROD1 (Homo sapiens, UniProt Q9BQ69); test = competitive isoTOP-ABPP; test system = proteome, soluble, MDA-MB-231; setting = 100 µM, 60 min, together with: iodoacetamide probe; how to read = baseline: DMSO over compound-treated, higher = stronger cysteine blockade; quantity = isoTOP-ABPP competition ratio; value = 6.5
Compound = COc1cc(C2C(NC(=O)c3ccc(NC(=O)OC(C)(C)C)cc3)(C(=O)O)C(c3ccc(OC(=O)c4cccs4)c(OC)c3)C2(NC(=O)c2ccc(NC(=O)OC(C)(C)C)cc2)C(=O)O)ccc1OC(=O)c1cccs1 (stereo not drawn); target or system = GLP1R (Homo sapiens, UniProt P43220, T298A); test = cAMP accumulation, agonist; setting = receptor mutant; how to read = baseline: wild type; quantity = Emax; value = 87.9 ± 4.55%
Compound = O=C(N1CCCC1)n1cc(-c2ccc(-c3ccccc3)cc2)nn1; target or system = Presenilin-associated rhomboid-like protein, mitochondrial (Parl, Mus musculus, UniProt Q5XJY4); test = probe labelling, inhibitor, competitive ABPP-SILAC, measured: Parl; test system = mouse T cells; setting = concentration not given, 4 h, in situ, single peptide; how to read = baseline: treated over DMSO, lower = more inhibition; quantity = SILAC ratio; value = 1.09 and 1.3 and 1.04 and 1.21 and 1.35 and 1.32
Compound = C=C1CCCCCCCCCC(CO)C1=O (stereo not drawn); target or system = KIT (Homo sapiens, UniProt P10721); test = cell-free assay; setting = 10 µM; quantity = remaining signal; value = 100%
Compound = O=C1C(Cl)=C(NCCN2CCOCC2)C(=O)c2ncccc21; target or system = KMT5A (Homo sapiens, UniProt Q9NQR1); test = enzyme activity, radiometric filter; setting = 8 h, 1 µM native enzyme; quantity = Hill coefficient; value = 1.2
Compound = COc1cc(-c2cn(C)c(=O)c3cnccc23)cc(OC)c1CN(C)C; target or system = Peregrin (BRPF1, Homo sapiens, UniProt P55201); quantity = ΔTm; value = 0 °C
Compound = Cc1ccc(S(=O)(=O)NC(CC(=O)O)c2ccccc2)cc1 (stereo not drawn); target or system = Rhomboid protease AarA; test = enzyme activity, inhibitor, fluorogenic peptide substrate; quantity = IC50; value = inactive
Compound = COC(=O)[C@@]1(C)C=C(C(=O)Nc2cccc(C(=O)Nc3ccc(Nc4nccc(-c5cccnc5)n4)c(C)c3)c2)C(=O)CC1; target or system = MAPK1 (Homo sapiens, UniProt P28482); test = enzyme activity, inhibitor; setting = 400 µM, unit not given; how to read = baseline: vehicle; quantity = remaining activity; value = 0.339 and 0.312 and 0.244
Compound = O=C(Nc1nncs1)c1cccc([C@@H]2C[C@H]2NC2CCC2)c1; target or system = KDM1A; test = demethylase activity, inhibitor, Amplex Red; setting = 0.002743 µM, together with: H3K4me2 peptide; how to read = baseline: vehicle; quantity = remaining activity; value = 98.7%
Compound = CCCCCCCO[C@H]1O[C@H](CO)[C@@H](O)[C@H](O)[C@@H]1O; target or system = Type 1 fimbrin D-mannose specific adhesin, lectin domain (fimH, Escherichia coli K-12, UniProt P08191); test = binding, isothermal titration calorimetry; setting = 25 °C, global fit of two titrations; quantity = ΔG; value = -10.3 kcal/mol
Compound = CC(C)C(=O)Nc1ccc(F)c(Cl)c1; target or system = Rhomboid protease AarA; test = enzyme activity, inhibitor, fluorogenic peptide substrate; quantity = IC50; value = inactive
Compound = Cn1cc(-c2cc(N3CCCCS3(=O)=O)ccc2N[C@H]2CC[C@H](C)CC2)c2cc[nH]c2c1=O (stereo in doubt); target or system = CREBBP (Homo sapiens, UniProt Q92793); test = binding, competition with immobilised ligand; setting = 1 µM; quantity = remaining binding; value = 17%
Compound = CC(=O)N[C@@H](CC(=O)O)C(=O)N[C@@H](CC(C)C)C(=O)N[C@@H](C)C(=O)N[C@@H](CC(=O)O)C(=O)COC(=O)c1c(C)cccc1C; target or system = CASP1; test = enzyme activity, inhibitor; quantity = kinact/KI; value = 35400 M⁻¹ s⁻¹
Compound = O=C1c2sc(-c3ccc(N4CCC(CO)CC4)nc3F)nc2CCN1c1cccnc1; target or system = TAR DNA-binding protein 43, aggregated (TARDBP, Homo sapiens, UniProt Q13148); test = radioligand binding; test system = human, FTLD-TDP type B extract; setting = together with: radioligand 1.29 nM; quantity = specific binding; value = 0.841 nM and 0.476 nM
Compound = C#CCCCn1cnc(N)c2nc(Sc3ccc(C)cc3C)nc1-2; target or system = Heat shock protein HSP 90-alpha, N-terminal domain (HSP90AA1, Homo sapiens, UniProt P07900); test = ITC; quantity = ΔH; value = -5.3 ± 4.71 kcal/mol
Compound = O=C(CCCCCCS)Nc1ccccc1; target or system = HDAC8 (Homo sapiens, UniProt Q9BY41); test = ITC; test system = phosphate buffer; setting = pH 7.5; quantity = TΔS; value = 7 kcal/mol
Compound = O=C(NC[C@@H](Cc1ccc(F)cc1)N1CCC(O)(C(F)(F)F)CC1)C1(c2ccc(Cl)cc2)CCCC1; target or system = Trpa1 (Rattus norvegicus, UniProt Q6RI86, M949I); test system = rat; setting = dose not given; quantity = activity; value = inactive
Compound = O=C1CCN1C(=O)NCc1ccccc1; target or system = Rhomboid protease AarA; test = substrate cleavage, inhibitor, gel-based; quantity = IC50; value = inactive
Compound = Cc1c(C)n(-c2ccc(Br)cc2)c2ncnc(N3CCC(C(N)C(=O)N4CCCC4)CC3)c12 (stereo not drawn); target or system = PADI4 (Homo sapiens, UniProt Q9UM07); test = surface plasmon resonance; quantity = koff; value = 0.24 s⁻¹ and 0.171 s⁻¹ and 0.267 s⁻¹ and 0.124 s⁻¹
Compound = CC(=O)N[C@H](C(=O)N[C@@H](CCC(N)=O)C(=O)N[C@@H](CO)C(=O)N[C@@H](CC(=O)O)C(=O)COC(=O)c1c(C)cccc1C)C(C)(C)C; target or system = CASP1; test = enzyme activity, inhibitor; quantity = kinact/KI; value = 16000 M⁻¹ s⁻¹
Compound = CCCCOc1ccc(C(=O)OCCN2CC=CCC2)cc1; target or system = CHRM4 (Homo sapiens, UniProt P08173); test system = membranes; setting = 1 µM, 15 h, no carbachol; how to read = baseline: control; quantity = basal binding; value = 1.42 ± 0.08 fold
Compound = CC(=O)N[C@H](C(=O)N[C@@H](CCC(=O)O)C(=O)N[C@@H](C)C(=O)N[C@@H](CC(=O)O)C(=O)COC(=O)c1c(C)cccc1C)C(C)C; target or system = CASP1; test = enzyme activity, inhibitor; quantity = kinact/KI; value = 337000 M⁻¹ s⁻¹
Compound = Cc1c(Cc2cccc(OC(C)C(=O)O)c2)c2ccc(C(=O)NC(C)c3cccc(C4CC4)c3)cc2n1C (mixture of isomers); target or system = PPARG (Homo sapiens, UniProt P37231); test = ligand displacement, TR-FRET; quantity = IC50; value = 3 nM
Compound = CCCC[C@H](NC(C)=O)C(=O)N[C@@H](CCC(=O)O)C(=O)N[C@@H](CO)C(=O)N[C@@H](CC(=O)O)C(=O)COC(=O)c1c(C)cccc1C; target or system = CASP1; test = enzyme activity, inhibitor; quantity = kinact/KI; value = 1.02e+06 M⁻¹ s⁻¹
Compound = Cc1cccc(NC(=O)C(C(F)(F)F)C(F)(F)F)c1; target or system = Rhomboid protease AarA; how to read = baseline: IC50 chymotrypsin over IC50 AarA; quantity = selectivity ratio; value = 1
Compound = CC(C)[C@@H]1NC(=O)[C@H](Cc2ccccc2)NC(=O)CSC[C@@H](C(N)=O)NC(=O)[C@H](CCC(=O)O)NC(=O)[C@H](CO)NC(=O)[C@H](Cc2c[nH]c3cccc(Cl)c23)NC(=O)[C@H](C2CCCCC2)NC(=O)[C@H](C(C)C)NC(=O)[C@H](Cc2ccc(O)cc2)NC(=O)[C@H](CC(=O)O)NC(=O)[C@H](Cc2c[nH]c3ccccc23)NC(=O)[C@H](Cc2ccc(N)nc2)NC(=O)[C@H](Cc2c[nH]c3ccc(Cl)cc23)NC(=O)[C@H](CCC(=O)O)NC1=O; target or system = Interleukin-1 receptor-like 2 (IL1RL2, Homo sapiens, UniProt Q9HB29); test = reporter gene (SEAP), inhibitor, HEK-Blue IL-36R reporter; test system = HEK-Blue IL-36R cells; setting = 33.33 µM, 6 h, together with: IL-36γ 3 ng/mL; quantity = remaining activity; value = 34.1%
